# Assay results gathered from unrelated publications.
# Protocols differ between the studies behind these lines. Numbers after ± are the reported error.
Compound,test,system,conditions,how to read,endpoint,result
CNC(=O)c1ccc(-c2cnc3ncc(Cc4ccc5ncccc5c4)n3n2)cc1F,ultrafiltration,"human severe hepatic function, plasma","oral, 200 mg, 3 h post-dose, mean",,fraction unbound,0.0425
CCN(CC)CCN(CCNCCc1ccc(O)c2[nH]c(=O)sc12)C(=O)CCOCCc1cccc2ccccc12,equilibrium dialysis,"human, plasma",,,fraction unbound,0.046
Cl.[2H]C([2H])([2H])CC(=O)c1cnc(NC(=O)C2CC2)cc1Nc1cccc(-c2ncn(C([2H])([2H])[2H])n2)c1OC,,"human, urine","oral, 40 mg twice daily, fasted, multiple doses, mean",,fraction excreted unchanged,0.37%
CC(C)n1c(C2CCNCC2)nc2c([N+](=O)[O-])c(Br)c(Br)cc21,,"human, urine","oral, 100 mg, median, single dose",,fraction excreted in urine,0.01
CCN1CCN(Cc2ccc(Nc3ncc(F)c(-c4cc(F)c5nc(C)n(C(C)C)c5c4)n3)nc2)CC1,population PK model,"human, plasma",oral,,fraction entering gut compartment,0.92
COc1ccc(F)cc1C(=O)NCc1ccc(-c2nn([C@@H](C)C(F)(F)F)c(N)c2C(N)=O)cc1,,human,"oral, 200 mg, tablet",,fraction absorbed,0.91
C[C@H]1CN(C2COC2)CCN1c1ccc(Nc2cc(-c3ccnc(N4CCn5c(cc6c5CC(C)(C)C6)C4=O)c3CO)cn(C)c2=O)nc1,,"human, plasma",,,fraction unbound,0.2
CN[C@@H]1COc2c(S(=O)(=O)NC(=O)Nc3c4c(cc5c3CCC5)CCC4)cnn2C1,,"human, urine","oral, 900 mg, 0-48 h",,fraction excreted in urine,0.181
NC[C@@]1(CC(=O)O)[C@@H]2CC[C@H]3C[C@@H]2[C@@H]1C3,,"human, moderate renal impairment, urine","oral, 20 mg single dose, 0-72 h",,fraction excreted in urine,70.7%
NCCONC(=O)[C@@H]1CC[C@@H]2CN1C(=O)N2OS(=O)(=O)O,,"human male, urine","intravenous infusion, 2 g multiple doses, day 9",,fraction excreted in urine (0-8 h),81.1%
CCn1c(=O)c2c(nc(/C=C/c3ccc(OC)c(OC)c3)n2C)n(CC)c1=O,estimated from MDCK Papp,"MDCK knock-out, human","1 µM, 90 min",,fraction absorbed,100%
CN(C(=O)C(C)(C)c1cc(C(F)(F)F)cc(C(F)(F)F)c1)c1cnc(N2C[C@H]3COCCN3C[C@H]2CO)cc1-c1ccc(F)cc1[14CH3],"LC-MS/MS, AUC-based, measured: unchanged compound","human, male, plasma","oral, 120 mg",,fraction of total radioactivity,31%
Cn1cc(-c2cn3nccc3c(-c3cnn([C@]4(CC#N)C[C@@H](C#N)C4)c3)n2)cn1,,"healthy humans, urine","oral, 400 mg once daily, day 10, Japanese cohort, dosing interval",,fraction excreted unchanged in urine,0.7%
C[C@@H](Oc1ccc(S(C)(=O)=O)cc1C(=O)N1C[C@@H]2C[C@]2(c2cc(C(F)(F)F)on2)C1)C(F)(F)F,,"elderly humans, urine","oral, 25 mg once daily, 0-24 h, multiple dose, geometric mean",,fraction excreted in urine at steady state,7.1%
Cc1cc(-c2nccc3c2ccn3CC(=O)Nc2ccc(-c3cnccn3)cn2)ccn1,,"human, urine","oral, 15 mg once daily, day 16, geometric mean",,fraction excreted in urine (fe),2.27%
COc1cc(NC(=O)CCN2CCC(OC(=O)Nc3ccccc3-c3ccccc3)CC2)c(Cl)cc1CNC[C@H](O)c1ccc(O)c2[nH]c(=O)ccc12,equilibrium dialysis,"human, plasma",,,fraction unbound,0.018
CC(=O)N(C)[C@H]1CCN(C(=O)c2cnc3c(c2)C[C@](C)(c2ccc(F)cc2)N3)C1,,"healthy male human, urine","oral, 15 mg once daily, 0-48 h steady state, geometric mean",,fraction excreted in urine,50.9%
O=C(c1nc2n(n1)[C@H](c1ccccc1)C[C@@H]2F)C1CC1,,"human, fed","oral, 75 mg single dose, mean",,fraction excreted fe(0-72 h),0.22%
CNC(=O)c1cc(Cl)c(OC(C)(C)C(=O)O)cc1OC[C@@H](O)CN1CCC2(CC1)Cc1cc(Cl)ccc1O2,equilibrium dialysis,"human, plasma",,,fraction unbound,0.4
CC(=O)C(C)n1ncn(-c2ccc(N3CCN(c4ccc(OC[C@H]5CO[C@](Cn6cncn6)(c6ccc(Cl)cc6Cl)O5)cc4)CC3)cc2)c1=O (stereo partly drawn),,human,,,fraction unbound,0.007 ± 0.003
C[C@@H](N)c1cc(Cl)ccc1Cn1c(=S)[nH]c(=O)c2[nH]ccc21,,"human severe renal impairment, urine","oral, 2.5 mg single dose, 0-24 h",relative to: dose,fraction excreted unchanged,21.2%
CC(C)OC(=O)[C@@H](C)N[P@@](=O)(OC[C@H]1O[C@@H](n2ccc(=O)[nH]c2=O)[C@](C)(Cl)[C@@H]1O)Oc1ccccc1,,human,"oral, dose not given, capsule",,fraction of dose absorbed via route 1,91%
CC(=O)N[C@@H](CS)C(=O)O,,"human, plasma",,,fraction unbound,2.1%
C=CC(=O)Nc1cc(Nc2ncc(C(=O)OC(C)C)c(-c3cn(C)c4ccccc34)n2)c(OC)cc1N(C)CCN(C)C,,"healthy human, urine","oral, 120 mg single dose, arithmetic mean",,fraction of dose excreted,0.69%
C[C@H]1CN(C(=O)CC#N)[C@]12CCN(c1ncnc3[nH]ccc13)C2,,"human, male","oral, assumed oral bioavailability 100%",,fraction of drug metabolized,~25%
CC(C)(Sc1ccncc1-c1ccc(C#N)c2ccccc12)C(=O)O,,"human, urine","oral, 2.5 mg, with: febuxostat 20 mg",,fraction excreted in urine (0-24 h),1.37%
COc1cc(C(=O)NC2CCN(C)CC2)c(F)cc1Nc1ncc(C(F)(F)F)c(Oc2cccc3c2C(=O)N(C)C3)n1,,"healthy Japanese humans, urine","oral, 200 mg once daily, multiple doses, 0-24 h, geometric mean",,"fraction excreted in urine, steady state",8.5%

# For quick reference, copied from above:
Compound,test,system,conditions,how to read,endpoint,result
Cn1cc(-c2cn3nccc3c(-c3cnn([C@]4(CC#N)C[C@@H](C#N)C4)c3)n2)cn1,,"healthy humans, urine","oral, 400 mg once daily, day 10, Japanese cohort, dosing interval",,fraction excreted unchanged in urine,0.7%
CC(C)n1c(C2CCNCC2)nc2c([N+](=O)[O-])c(Br)c(Br)cc21,,"human, urine","oral, 100 mg, median, single dose",,fraction excreted in urine,0.01
CC(=O)N(C)[C@H]1CCN(C(=O)c2cnc3c(c2)C[C@](C)(c2ccc(F)cc2)N3)C1,,"healthy male human, urine","oral, 15 mg once daily, 0-48 h steady state, geometric mean",,fraction excreted in urine,50.9%
